Experimental data of several laboratories.
Parts stem from different laboratories: compare values within a part only. Changes are numbered by the printed parent chain.

Study 1
Target: Fragile X messenger ribonucleoprotein 1, C-terminal low-complexity region (Fmr1, Mus musculus, UniProt P35922)
Method: RNA Bind-n-Seq
Molecule type: RNA
Medium: in vitro
Tested at: 200 nM
Notes: whole 134-nt RNA, ends assumed
Together with: 150 mM LiCl
Baseline: input library
Reading: higher = stronger binding
Each molecule: 7-deaza-guanosine replaces G
All sequences stand within: GGGAGUUCUACAGUCCGACGAUC … UGGAAUUCUCGGGUGUCAAGG
Oligonucleotide | log2 enrichment
GUCCUGUGCUACACAUCGUAUGUACCGAAUCGGGGUUUGGGGAAAGGGGUUUUUGGGGAAAGUAUUAUGUUACGCCGUUCGGAUCUGCAC | -0.122
CACAGACAACACGCACCCACACAGACACAGAGGGAAGGGGUUGGGAUGGGGACAGGGUGCCCAGCAGGGCGGGGUAGGACCCCAGCCCCU | -0.206
UUCCUCAAGUCCUGUGCUACACAUCGUAUGUACCGAAUCGGUGGUGGGUGGAAAGUAUUAUGUUACGCCGUUCGGAUCUGCACUUCCAGC | 1.08
CAAGUCCUGUGCUACACAUCGUAUGUACCGAAUCGGGAAAGGGUGGGAAAAAGGGAAAGUAUUAUGUUACGCCGUUCGGAUCUGCACUUC | -0.911
UAGGUAAGAAAGUACUCAUUGUCUAUGCACACCAGGAACCCAAGUCUUUCAACGGAUCCUUGAAGAAUGUGGCUGUAGAUGAACUGAGCA | -0.949
CCUGUGCUACACAUCGUAUGUACCGAAUCGGGGUUUGGGGUUUUUUUGGGGUUUUUGGGGAAAGUAUUAUGUUACGCCGUUCGGAUCUGC | -0.348
GUCCUGUGCUACACAUCGUAUGUACCGAAUCAAAUUUUUUUAAAUUUAAAUUUUUAAAAAAGUAUUAUGUUACGCCGUUCGGAUCUGCAC | -3.11
UCAAGUCCUGUGCUACACAUCGUAUGUACCGAAUCGGUUUUUUUGGUGGAAAGGAAAGUAUUAUGUUACGCCGUUCGGAUCUGCACUUCC | -0.61
UGUGCUACACAUCGUAUGUACCGAAUCGGGGUUUUUUUGGGGUUUUUGGGGAAAAAAAGGGGAAAGUAUUAUGUUACGCCGUUCGGAUCU | -0.296
UCAAGUCCUGUGCUACACAUCGUAUGUACCGAAUCGGUUUUUGGAAAGGAAAGGAAAGUAUUAUGUUACGCCGUUCGGAUCUGCACUUCC | -0.712
CAAGUCCUGUGCUACACAUCGUAUGUACCGAAUCGGAAAAGGAAAAGGAAAAGGGAAAGUAUUAUGUUACGCCGUUCGGAUCUGCACUUC | -0.735

Study 2
Target: RING finger protein unkempt homolog, zinc fingers 1-6, GST-SBP tag (UNK, Homo sapiens, UniProt Q9C0B0, residues 30-357)
Method: RNA Bind-n-Seq
Molecule type: RNA
Medium: in vitro
Tested at: not given
Notes: RNA with constant flanks, ends assumed
Baseline: input RNA pool
Reading: higher = stronger binding
All sequences stand within: GGGAGUUCUACAGUCCGACGAUC … CAACAGAGGAUUGAGCAUCA
Target sequence (chain): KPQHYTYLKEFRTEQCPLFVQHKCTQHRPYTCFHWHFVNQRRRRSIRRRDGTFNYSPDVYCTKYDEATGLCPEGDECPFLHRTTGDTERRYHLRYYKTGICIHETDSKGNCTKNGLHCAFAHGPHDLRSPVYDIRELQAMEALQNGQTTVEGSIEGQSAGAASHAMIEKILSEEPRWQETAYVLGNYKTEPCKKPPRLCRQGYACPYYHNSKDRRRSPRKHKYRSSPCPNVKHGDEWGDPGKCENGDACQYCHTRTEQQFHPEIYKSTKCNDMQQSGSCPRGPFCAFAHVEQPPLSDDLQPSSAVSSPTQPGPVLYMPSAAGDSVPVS
Oligonucleotide | bound/input enrichment [ratio]
AAACUCUCUAGCAAAACCACUGCUAAGUUAUCCACUAGUGCUAAAAGAAUUCAGAAGGAGCCCGCUGAAAUAACCCUUGAUCCUCCUCCUAAUUGCAGUGCUGGGCCUAAAGGAGAUAAC | 1.22
UAAACAAUCUUUUCUUUUUUUGUGGUUGUGUACUCAUUAUUGCUUGUUCGUCUUUUGCAAUUCCGAUAAAUGAUAUAACAUUAAACUCAAGGUGGUUGAGUUGCAGUAGGGAGUCGGAAG | 0.182
ACAGAGCCUCUUGUCCCACCUUUGUCCCCUGGCUGCUGCCCUCCCAUUCUCCCCCUCCAGCCGCCGCUGGGUGAGACCUGUCCGCCCACCUUCCCUCCACUACAGAACCUGCAGCCGCAA | 0.45
UGCUUUGAAAAUACCGGAGAGCUCAUUCUCCAGUCCGGCUCUUUCUCCUUCCAGAACUUCACCGAGAUUUUCACCGAUCAAGAGAUCGGGGAGUUACUAAGCACCACCCAUCCUGCCAAC | 0.207
AUACAAGUGACUACGAAAGACAUCCUAGUUACAGAGAAAGGAAAUACUGUGUUAGAAUUUUCCGCCGGACUCUUUAAACCUUUUGUGGAAAGCUAUCAGAUAAUUUGCAAGUACCUUUUG | 0.241
AGAGCAAUGGCUGCAGCAGCAGCUUCUCACCUGAACCUGGAUGCCCUCCGGGAAGUGCCCGAAUGCCCCAUCUGCAUGGAGUCCUUCACAGAAGAGCAGCUGCGUCCCAAGCUUCUGCAC | 0.0693
CAGGAAACCCAUAUUGAUUUUGUAAUUAAAUGUCAAGCCUGUGGAUUGUUUUGAGCUUGGCCGUUGAUGAGCAUUUCCGUACAGAGGCCUCACCUUGAGCACAGCACUGUCAGGAGGGCG | 0.392
CCAGAAGUGGAAUCUUUACAGGACUAUAAGAAUACAUUUCCCAAAUGGAAACCAGGAAGCCCCGCAUCCCAUGUCAAAAACUUGGAUGAAAAUGGCUUGGAUUUGCUCUCGAAAAUGUUA | 0.134
AAGUCAAUGCAGUCCCACUUACUCAAGCUGCAGCUGAAAGGCUAUCCCAGUACGUGUUGGCCGUUCCUGAGAGAGUUAUAGCUGGUGUUGCCUUGUGGUCUACCCCUUGUUUCAGGCCUC | 0.101
AAACUGCAUUCCAGCGCCAGUCCCAGUGCUCAGCAGUACGAUGCUUCCAGUGCAGUACUUUCCGACAACCUCCCUGGAGUCCGGUGGCUCACACUUCCACUGGAAAUCAAGAUGGAAUUA | 0.0958
AGUCCAUGUUAAGUUUCAUUUAAAAGAUGCAUUUAUAUUUUGUUCUGUAAUAUUCUACUGCCGGUGAAAUCUUCAAAAAUCAAGAGACUGGGUAGUUAAGAAUAUAUGAAUGACUAAUAU | 0.22

Study 3
Target: ABI1, truncated, D143A, DHFR fusion (Arabidopsis thaliana)
Method: DHFR PCA, deep sequencing
Medium: yeast
Notes: methotrexate growth selection, single substitutions
Together with: (+)-ABA 1.4 µM
Baseline: wild-type fitted maximum
Reading: higher = stronger binding
Parent: PYL1, truncated, DHFR fusion (Arabidopsis thaliana); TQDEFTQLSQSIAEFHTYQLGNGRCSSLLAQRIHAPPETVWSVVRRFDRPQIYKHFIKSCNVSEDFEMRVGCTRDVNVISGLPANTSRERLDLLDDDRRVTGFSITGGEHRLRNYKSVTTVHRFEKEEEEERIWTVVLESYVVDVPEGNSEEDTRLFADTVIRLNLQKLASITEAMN; partner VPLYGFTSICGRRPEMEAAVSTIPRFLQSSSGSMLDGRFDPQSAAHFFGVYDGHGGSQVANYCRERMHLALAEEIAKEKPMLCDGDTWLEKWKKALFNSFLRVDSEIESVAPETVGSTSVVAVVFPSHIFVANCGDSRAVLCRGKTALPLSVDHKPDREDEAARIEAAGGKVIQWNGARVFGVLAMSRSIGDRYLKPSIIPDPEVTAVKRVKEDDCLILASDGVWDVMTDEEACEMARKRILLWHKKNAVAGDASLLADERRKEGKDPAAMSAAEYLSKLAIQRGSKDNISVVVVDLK
Substitution | relative binding score [%]
S140C | 7.71
R49P | 6.73
I105G | -3.37
T106Y | 45.5
K116A | 22.2
E67G | 22
R123W | 11.1
V161N | 7.41
E127M | 61.7
T6R | 68.3
K54L | -7.33
W41D | -19.9
L82T | 3.86
S80R | -1.76
T106S | 7.37
V40L | 2.66
F15Y | 62.5
R46Q | 63.8
D95I | -1.4
L169I | -5.15
K58P | -4.06
L28P | 7.94
D75A | 33.8
S59P | -6.37
R45Q | -1.06

Study 4
Target: Interferon regulatory factor 7, full length, phosphomimetic (IRF7, Homo sapiens, UniProt Q92985, residues 1-503, S101K/S471D/S472D/S475D/S476D/S477D/S483D/S484D/S487D)
Method: protein-binding microarray
Molecule type: double-stranded DNA, one strand shown
Medium: in vitro
Tested at: 250 nM
Notes: 60-bp whole probe
Together with: salmon DNA 0.4 mg/ml
Baseline: random background probes
Reading: higher = stronger binding
All sequences stand within: GCCTAGCAC … GTCTTGATTCGCTTGACGCTGCTG
Residues (chain): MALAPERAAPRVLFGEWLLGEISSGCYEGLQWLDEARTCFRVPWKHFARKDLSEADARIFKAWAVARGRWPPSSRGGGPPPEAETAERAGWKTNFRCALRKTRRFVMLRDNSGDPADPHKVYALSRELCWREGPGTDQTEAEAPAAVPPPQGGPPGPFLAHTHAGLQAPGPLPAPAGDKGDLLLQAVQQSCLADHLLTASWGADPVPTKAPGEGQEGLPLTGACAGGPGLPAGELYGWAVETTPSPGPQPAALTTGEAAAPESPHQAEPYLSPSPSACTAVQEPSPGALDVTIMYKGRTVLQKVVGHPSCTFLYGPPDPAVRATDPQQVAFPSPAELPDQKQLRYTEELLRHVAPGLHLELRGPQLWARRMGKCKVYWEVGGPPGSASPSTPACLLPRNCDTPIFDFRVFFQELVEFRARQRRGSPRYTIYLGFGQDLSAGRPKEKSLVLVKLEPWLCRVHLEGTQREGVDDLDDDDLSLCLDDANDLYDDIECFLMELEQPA
Oligonucleotide | log fluorescence
TGATCCAAAAAGTGTGAGAAGTGCTAG | 0.358 z-score
TTAGGACTGAGTCTCGATTAGTGCTAG | 1.34 z-score
TTAGATTTCGGGTATCGATAAGTGCTA | 1.37 z-score
TCAACTCTGTGCTTTCCTACTGTGCTA | 0.0103 z-score
TTAGATTTCAGTCTCAATTAGTGCTAG | 0.69 z-score
GACGATTTCGCGTATCGAGACGTGCTA | 0.696 z-score
TCAACTTTCACTTCTCCACTGTGCTAG | 2.32 z-score
GGGCATTTAGAAAATGGAAATGTGCTA | -0.417 z-score
TCAGGTATCCTTCTCCTTTAGTGCTAG | 0.455 z-score
TAAGGTCTCCTACTGCTTTAGTGCTAG | -0.134 z-score
TCATAATTCTCTTTTCAACTGTGCTAG | 1.06 z-score
GACGCTATCCTACTGCTGACGTGCTAG | 0.136 z-score
TTAGATTTCGCGACTGGATTAGTGCTA | 0.296 z-score
TTAGGTATCCTACTGCTTTGGTGCTAG | 0.07 z-score
TCAGGTTCTCTTTTATTACTGTGCTAG | 1.98 z-score
TCAGCCATATTTATCTGACTGTGCTAG | -0.258 z-score
GACGATTTCAGTTTCTAGACGTGCTAG | 1.93 z-score
TTAGATTTCGGATTTCGATTAGTGCTA | 2.92 z-score
TTAGGTTTCGACACTGGGTCAGTGCTA | 3.2 z-score
TTAGGGCTGGGTATCGGTTAGTGCTAG | 0.209 z-score
GACGGCATCCTTATCCTGACGTGCTAG | -0.379 z-score
GACGGTCTCGGTATCGGAACGTGCTAG | 2.63 z-score
TCACACATGCATCTCCCACTGTGCTAG | -0.175 z-score
GACGATCACAGACTGGAGACGTGCTAG | -0.381 z-score
TTATATCTGTGTTATTAAATTGTGCTA | 0.923 z-score

Study 5
Target: Histone acetyltransferase KAT6A, both winged helices, GST fusion (KAT6A, Homo sapiens, UniProt Q92794, residues 1-181)
Method: protein binding microarray
Molecule type: double-stranded DNA, one strand shown
Medium: in vitro
Tested at: not given
Notes: 8-mer, flanks averaged, mean of 2 arrays, mostly near background
Baseline: not given
Reading: higher = stronger binding
Target sequence (chain): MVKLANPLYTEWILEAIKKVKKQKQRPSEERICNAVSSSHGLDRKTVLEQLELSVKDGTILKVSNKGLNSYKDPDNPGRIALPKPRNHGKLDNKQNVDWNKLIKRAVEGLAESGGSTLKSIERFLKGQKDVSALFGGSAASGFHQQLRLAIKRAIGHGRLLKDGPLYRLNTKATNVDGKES
Oligonucleotide | E-score
GGATCTGA | -0.0761
CCGAGTCG | 0.0661
AGCACCAT | -0.156
CACCGTCC | 0.108
AGGAGAAA | -0.269
ATTTGGCC | -0.0128
ACCAGGAG | -0.143
TACATACA | -0.0327
CGGGTTTC | 0.284
AATCGCGC | 0.284
CCGCCACG | 0.209
GATCTGCA | -0.107
TGCGGACA | 0.181
CTCTAAGA | -0.0127
CAGATCTC | -0.137
CTAAGCAC | 0.00441
AGTTACGC | 0.153
TGTAAACA | -0.114
AATTAACG | 0.0902
CCTAATGC | -0.0715
ACCAGAGT | -0.0362
CAGCTAGA | -0.208
ATCAAGGC | -0.177
ATCAAAGA | -0.0745

Excerpt of the above (study 3):
Substitution | relative binding score [%]
T6R | 68.3
R49P | 6.73
R46Q | 63.8
K58P | -4.06
S59P | -6.37
S80R | -1.76
T106Y | 45.5
K54L | -7.33
R123W | 11.1
L169I | -5.15
